Assay results gathered from unrelated publications.
Protocols differ between the studies behind these lines.
RET: Proto-oncogene tyrosine-protein kinase receptor Ret (RET, Homo sapiens, UniProt P07949)

With `O=C=[N][Ru-4]123([n]4c5ccc(O)cc5c5c6c(c7cc(F)c[n+]1c7c54)C(=O)NC6=O)[S+]1CC[S+]2CC[S+]3CC1` (stereo not shown) the remaining activity was 38% (Proto-oncogene tyrosine-protein kinase receptor Ret (RET, Homo sapiens, UniProt P07949, V804L); enzyme activity; 100 nM, human enzyme, with: 10 µM ATP; baseline: untreated).
`COc1c(OCCCN2CCOCC2)ccc2c1N=C(NC(=O)c1cnc(N)nc1)N1CCN=C21` gave a remaining activity of 109% (RET; kinase activity, inhibitor; 1 µM; baseline: untreated control).
With `C=C1CCCCCCCCCC(CO)C1=O` (stereo not shown) the remaining signal was 100% (RET; cell-free assay; 10 µM).
With `Cc1cccc(O[C@H]2CCC[C@@H](C(C)CNCc3ccncc3)C2)c1` (relative stereo) the inhibition was 8% (RET; cell-free assay; 1 µM).
For `COc1ccc(NC(=O)Nc2ccc3c(c2)C(=O)N(C(C)CO)CC(C)C(CN(C)Cc2ccc4c(c2)OCO4)O3)cc1` (stereo not shown), the remaining activity was 107% (RET; kinase activity, KinaseProfiler; 0.03 µM, species human; baseline: control).
With `CCn1cc(C(=O)O)c(=O)c2c(N)c(F)c(NC3CCCCC3)cc21` the inhibition was 8.6% (RET; kinase activity; 0.1 µM, with: ATP at Km).
`CN1CCN(Cc2ccc(-c3ccc(CO[C@H]4CCC[C@@H]4NC(=O)c4cc(-c5cnn(C)c5)cnc4N)cc3)cc2)CC1` gave an inhibition of -3% (Proto-oncogene tyrosine-protein kinase receptor Ret (RET, Homo sapiens, UniProt P07949, V804M); enzyme activity, inhibitor; 0.1 µM).
For `C=CC(=O)Nc1cccc(-c2cnc3[nH]cc(C(=O)NC(C)(C)C)c3n2)c1`, the inhibition was 28% (RET; enzyme activity, inhibitor; 0.1 µM).
The inhibition of `C=CC(=O)N1Cc2nc(-c3cc(-c4cc(Cl)cnc4Cl)c(F)cc3F)n(-c3ccncn3)c2C1` is reported as 3.1% (RET; cell-free assay; 1 µM).
The inhibition of `O=C(Nc1ccc(Oc2ncnc3[nH]cc(-c4ccccc4)c23)c(F)c1)c1c2n(n(-c3cc(F)ccc3F)c1=O)CCCC2` is reported as 17% (RET; enzyme activity, inhibitor; 0.5 µM).
For `CN1CCN(c2ccc(Nc3ncc(Cl)c(Nc4ccccc4P(C)(C)=O)n3)cc2Br)CC1`, the inhibition was 100% (RET; enzyme activity, inhibitor; 0.1 µM).
`COc1ccc(S(=O)(=O)N2CCc3ccccc3C2)cc1N1CCN(C(=O)c2ccc(F)cc2C(F)(F)F)CC1` has an inhibition of -11.6% (RET; enzyme activity, inhibitor; 1 µM).
The inhibition of `NC(=O)C[C@H]1CCc2sc3ncnc(O[C@H]4CC[C@H](N5CCOCC5)CC4)c3c21` is reported as 1% (RET; enzyme activity, inhibitor; 10 µM).
